Experimental data gathered from unrelated publications.
Every numbered part comes from another study and shows a few of its results, in no order. Changes are numbered by the printed parent chain.

Study 1
Substance: PhoQ, residues 284 288 289 292 302 303 SNGLAW
Technique: Sort-seq
Refers to: YFP reporter
Matrix: E. coli
Setting: PhoQ-PhoP variant library
With: 10 µM Mg2+
Relative to: high Mg2+ state
Direction: higher = stronger signaling
Measurement: fold induction
PhoP, residues 12 14 15 18 19 VGHWL (Escherichia coli, UniProt P23836): 8.52
PhoP, residues 12 14 15 18 19 NFFVT (Escherichia coli, UniProt P23836): 7.22
PhoP, residues 12 14 15 18 19 TPWTL (Escherichia coli, UniProt P23836): 12.1
PhoP, residues 12 14 15 18 19 LHHYF (Escherichia coli, UniProt P23836): 7.12

Study 2
Target: ABI1, truncated, D143A, DHFR fusion (Arabidopsis thaliana)
Technique: DHFR PCA, deep sequencing
Matrix: yeast
Setting: methotrexate growth selection, single substitutions
With: (+)-ABA 1.4 µM
Relative to: wild-type fitted maximum
Direction: higher = stronger binding
Measurement: relative binding score
Starting sequence: PYL1, truncated, DHFR fusion (Arabidopsis thaliana); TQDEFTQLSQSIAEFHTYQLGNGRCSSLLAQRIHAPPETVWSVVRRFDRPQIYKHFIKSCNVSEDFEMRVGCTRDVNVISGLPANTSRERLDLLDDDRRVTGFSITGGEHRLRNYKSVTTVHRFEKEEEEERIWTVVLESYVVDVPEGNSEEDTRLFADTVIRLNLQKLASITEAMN; partner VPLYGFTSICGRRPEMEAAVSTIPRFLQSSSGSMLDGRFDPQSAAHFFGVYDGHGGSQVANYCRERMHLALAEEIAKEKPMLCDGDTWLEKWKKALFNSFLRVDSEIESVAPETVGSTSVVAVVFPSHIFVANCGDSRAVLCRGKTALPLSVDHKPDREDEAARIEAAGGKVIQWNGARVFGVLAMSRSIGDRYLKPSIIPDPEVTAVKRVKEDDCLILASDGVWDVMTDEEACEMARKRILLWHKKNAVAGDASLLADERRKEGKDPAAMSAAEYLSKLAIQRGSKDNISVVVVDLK
N149G: 44.8%
D95I: -1.4%
F66W: 38.2%
K54L: -7.33%
I105G: -3.37%
S87Q: 26.8%
G108P: -13.5%
K58P: -4.06%
Y115T: -10%
S63I: 33.7%
I12R: 11.8%
S80R: -1.76%
Q167M: 52.1%
E67G: 22%
E127M: 61.7%
G102M: -2.57%

Study 3
Target: Sal-like protein 4, full length isoform A (SALL4, Homo sapiens, UniProt Q9UJQ4, residues 1-1053)
Sequence of UniProt Q9UJQ4 (whole entry, looked up): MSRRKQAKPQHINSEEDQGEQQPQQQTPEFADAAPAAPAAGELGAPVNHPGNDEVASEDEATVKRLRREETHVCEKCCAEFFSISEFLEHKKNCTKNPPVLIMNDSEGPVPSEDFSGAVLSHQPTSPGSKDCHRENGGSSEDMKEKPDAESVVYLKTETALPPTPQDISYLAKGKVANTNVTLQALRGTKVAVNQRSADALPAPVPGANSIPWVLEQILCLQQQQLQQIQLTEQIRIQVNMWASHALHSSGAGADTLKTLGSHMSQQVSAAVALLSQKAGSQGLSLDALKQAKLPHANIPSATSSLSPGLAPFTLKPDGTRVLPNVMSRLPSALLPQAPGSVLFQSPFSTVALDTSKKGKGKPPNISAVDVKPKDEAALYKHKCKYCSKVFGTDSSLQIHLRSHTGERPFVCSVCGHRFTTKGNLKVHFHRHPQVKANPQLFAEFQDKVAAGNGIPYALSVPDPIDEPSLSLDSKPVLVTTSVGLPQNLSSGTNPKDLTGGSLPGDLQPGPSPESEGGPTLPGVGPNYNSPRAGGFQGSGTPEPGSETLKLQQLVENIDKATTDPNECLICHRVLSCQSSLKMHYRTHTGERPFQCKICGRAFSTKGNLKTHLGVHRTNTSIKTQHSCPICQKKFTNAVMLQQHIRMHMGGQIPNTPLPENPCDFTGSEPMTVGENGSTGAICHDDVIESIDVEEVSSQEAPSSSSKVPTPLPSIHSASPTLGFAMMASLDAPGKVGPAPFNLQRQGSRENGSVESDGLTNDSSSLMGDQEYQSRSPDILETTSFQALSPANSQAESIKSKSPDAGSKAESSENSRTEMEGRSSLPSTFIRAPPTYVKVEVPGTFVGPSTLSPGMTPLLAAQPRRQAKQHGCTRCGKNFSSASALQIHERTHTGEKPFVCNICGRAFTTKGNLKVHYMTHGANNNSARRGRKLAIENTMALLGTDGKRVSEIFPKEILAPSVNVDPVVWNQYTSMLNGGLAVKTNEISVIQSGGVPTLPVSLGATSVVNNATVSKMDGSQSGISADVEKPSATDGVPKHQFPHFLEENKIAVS
Technique: universal PBM
Molecule type: double-stranded DNA, one strand shown
Matrix: in vitro
Tested at: 600 nM
Setting: 8-mer, flanks averaged, mean of replicates
Direction: higher = stronger binding
Measurement: E-score
CATTGGGG: -0.129
ATGAGAGC: -0.0119
ACAGGTTG: -0.00808
ACTCCTAC: -0.0363
TCGTCACA: 0.0452
CATTGCAG: -0.0177
AAAATCGT: 0.247
AACCAACA: 0.0993
CAAATCGC: -0.132
ATCGCGCG: -0.116
AAATTTCC: 0.109
GGATCGGA: -0.244
GGCGTTTA: 0.0789
CAATGCCA: -0.0536
ACTGGGGC: -0.239
ACTGGAAT: 0.053
CTACGGCA: -0.187
CAGTAAAC: 0.1
CCGTCCGA: -0.253
CCCACAAG: -0.227
ACAGCTAA: 0.0653
AACGTTCA: 0.0836
AGCTCGGC: -0.245
CAGTACAG: 0.0447
GGCTGACC: -0.242

Study 4
Target: CCND3, cyclin fold, Cln2 fusion (human)
Technique: yeast growth competition, sequencing
Matrix: yeast
Setting: weak parent motif
Relative to: not given
Direction: higher = stronger binding
Measurement: normalised enrichment score
Starting sequence: CDKN1B docking peptide (human); PSACRNLFGPVDH; partner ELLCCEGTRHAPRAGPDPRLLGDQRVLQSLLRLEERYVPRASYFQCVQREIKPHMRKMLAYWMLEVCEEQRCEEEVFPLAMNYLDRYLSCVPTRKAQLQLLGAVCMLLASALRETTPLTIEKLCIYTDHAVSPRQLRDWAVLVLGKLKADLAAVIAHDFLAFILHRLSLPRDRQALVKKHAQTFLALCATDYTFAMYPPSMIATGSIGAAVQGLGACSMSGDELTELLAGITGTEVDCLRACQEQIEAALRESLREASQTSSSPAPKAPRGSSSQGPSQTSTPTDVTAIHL
PSACRNLFFPVDH [G9F]: 0.105
PTACRNLFGPVDH [S2T]: 0.134
PSACRNYFGPVDH [L7Y]: 0.119
PSACRNLFGMVDH [P10M]: 0.0457
PSASRNLFGPVDH [C4S]: 0.139
PSACPNLFGPVDH [R5P]: 0.098
PSACRNHFGPVDH [L7H]: 0.157
SSACRNLFGPVDH [P1S]: 0.0631
PSAVRNLFGPVDH [C4V]: 0.0756
PSACRNLFGPNDH [V11N]: 0.154
PSACRNLFGPVPH [D12P]: 0.0796
PSVCRNLFGPVDH [A3V]: 0.15
PSACRNLFGAVDH [P10A]: 0.0411
PSYCRNLFGPVDH [A3Y]: 0.0679
PSACRNLFGPVDN [H13N]: 0.162
PSACRNLFGPHDH [V11H]: 0.182
PSACRNLNGPVDH [F8N]: 0.127
PSACRNLFKPVDH [G9K]: 0.262

A few entries again (study 3):
TCGTCACA: 0.0452
CATTGCAG: -0.0177
AAAATCGT: 0.247
AACCAACA: 0.0993
CAAATCGC: -0.132
ATCGCGCG: -0.116
AAATTTCC: 0.109
GGATCGGA: -0.244
GGCGTTTA: 0.0789
CAATGCCA: -0.0536
ACTGGGGC: -0.239
